{"data": "Results collected from several papers", "organism": "Staphylococcus aureus", "note": "Protocols differ between the studies behind these lines."}
{"Molecule": "CC[C@H](C)[C@H](NC(=O)[C@H](CC(C)C)NC(=O)[C@@H]1CCCN1C(=O)[C@H](Cc1ccccc1)NC(=O)[C@H](CC(C)C)NC(=O)[C@@H](N)Cc1ccccc1)C(=O)N[C@H](C(=O)N[C@@H](CO)C(=O)N[C@@H](Cc1ccccc1)C(=O)N[C@@H](CC(C)C)C(=O)N[C@@H](CO)C(=O)N[C@@H](CCCCN)C(=O)N[C@H](C(=O)N[C@@H](CC(C)C)C(=O)O)C(C)C)[C@@H](C)O", "test": "broth microdilution", "test system": "USA300 LAC", "conditions": "37 °C", "MIC": "50 µM"}
{"Molecule": "CN[C@H](CC(C)C)C(=O)N[C@H]1C(=O)N[C@@H](CC(N)=O)C(=O)N[C@H]2C(=O)N[C@H]3C(=O)N[C@H](C(=O)N[C@H](C(=O)O)c4cc(O)cc(O)c4-c4cc3ccc4O)[C@H](O)c3ccc(c(Cl)c3)Oc3cc2cc(c3O[C@@H]2O[C@H](CO)[C@@H](O)[C@H](O)[C@H]2O[C@H]2C[C@](C)(N)[C@H](O)[C@H](C)O2)Oc2ccc(cc2Cl)[C@H]1O", "test system": "MSSA ATCC 29213", "MIC": "1 µg/mL"}
{"Molecule": "CN[C@H](CC(C)C)C(=O)N[C@H]1C(=O)N[C@@H](CC(N)=O)C(=O)N[C@H]2C(=O)N[C@H]3C(=O)N[C@H](C(=O)N[C@H](C(=O)O)c4cc(O)cc(O)c4-c4cc3ccc4O)[C@H](O)c3ccc(c(Cl)c3)Oc3cc2cc(c3O[C@@H]2O[C@H](CO)[C@@H](O)[C@H](O)[C@H]2O[C@H]2C[C@](C)(N)[C@H](O)[C@H](C)O2)Oc2ccc(cc2Cl)[C@H]1O", "test system": "MSSA ATCC 9144", "conditions": "20 h", "MIC": "1 to 2 µg/mL"}
{"Molecule": "CC(C)C[C@H](NC(=O)[C@H](CC(C)C)NC(=O)[C@H](CCCCN)NC(=O)[C@H](CC(C)C)NC(=O)[C@H](CC(C)C)NC(=O)[C@H](CCCCN)NC(=O)[C@H](CCCCN)NC(=O)[C@H](CC(C)C)NC(=O)[C@H](CC(C)C)NC(=O)[C@H](CCCCN)NC(=O)[C@H](CC(C)C)NC(=O)[C@H](CC(C)C)NC(=O)[C@@H](N)CCCCN)C(=O)NCC(N)=O", "test system": "SH1000 GFP-expressing, nutrient broth", "conditions": "20 h, 37 °C", "MIC": "> 100 µM"}
{"Molecule": "CC[C@H](C)[C@H](N)C(=O)N[C@@H](CC(N)=O)C(=O)N[C@@H](CC(C)C)C(=O)N[C@@H](CCCCN)C(=O)N[C@@H](C)C(=O)N[C@@H](CCCCN)C(=O)N[C@@H](C)C(=O)N[C@@H](C)C(=O)N[C@@H](CC(C)C)C(=O)N[C@@H](C)C(=O)N[C@@H](CCCCN)C(=O)N[C@@H](CCCCN)C(=O)N[C@@H](CC(C)C)C(=O)N[C@@H](CC(C)C)C(N)=O", "test": "broth microdilution", "MIC": "> 2000 µg/mL"}
{"Molecule": "CSCC[C@H](NC(=O)[C@H](CO)NC(=O)[C@H](CCCCN)NC(=O)[C@H](Cc1c[nH]c2ccccc12)NC(=O)[C@@H](N)CO)C(=O)N[C@@H](C)C(=O)N[C@@H](CCCCN)C(=O)N[C@@H](CCCCN)C(=O)N[C@@H](CC(C)C)C(=O)N[C@@H](CCCCN)C(=O)N[C@@H](CCC(=O)O)C(=O)N[C@@H](Cc1ccc(O)cc1)C(=O)N[C@@H](CCSC)C(=O)N[C@@H](CCC(=O)O)C(=O)N[C@@H](CCCCN)C(=O)N[C@@H](CC(C)C)C(=O)N[C@@H](CCCCN)C(=O)N[C@@H](CCC(N)=O)C(=O)N[C@@H](CCCNC(=N)N)C(=O)N[C@@H](C)C(=O)O", "test": "broth microdilution", "test system": "USA300 LAC", "conditions": "37 °C", "MIC": "> 100 µM"}
{"Molecule": "CC[C@H](C)[C@H](NC(=O)[C@H](C)NC(=O)[C@@H](NC(=O)[C@H](C)NC(=O)CNC(C)=O)[C@@H](C)O)C(=O)N[C@@H](CCCCN)C(=O)N[C@@H](CCC(N)=O)C(=O)N[C@H](C(=O)N[C@@H](CCCCN)C(=O)N[C@@H](CCCCN)C(=O)N[C@@H](CC(C)C)C(=O)N[C@@H](Cc1ccccc1)C(=O)N[C@@H](CCCCN)C(=O)N[C@@H](CCCCN)C(=O)N[C@@H](CCCCN)C(=O)NCC(=O)NCC(N)=O)C(C)C", "test": "broth microdilution", "test system": "ATCC 25923", "conditions": "24 h, 37 °C", "MIC": "310 µM"}
{"Molecule": "CC[C@H](C)[C@H](NC(=O)[C@H](CC(=O)O)NC(=O)[C@H](Cc1ccccc1)NC(=O)[C@H](CC(C)C)NC(=O)CN)C(=O)N[C@H](C(=O)N[C@@H](CCCCN)C(=O)N[C@@H](CCCCN)C(=O)N[C@H](C(=O)N[C@H](C(=O)NCC(=O)N[C@@H](C)C(=O)N[C@@H](CC(C)C)C(=O)NCC(N)=O)C(C)C)C(C)C)C(C)C", "test system": "ATCC 43300, CAMHB", "conditions": "18 h, 37 °C", "MIC": "> 23 µM"}
{"Molecule": "N=C(N)NCCC[C@H](NC(=O)[C@H](Cc1c[nH]cn1)NC(=O)[C@@H]1CCCN1C(=O)[C@H](CS)NC(=O)[C@@H]1CCCN1)C(=O)N[C@@H](CS)C(=O)O", "test": "broth microdilution", "test system": "MTCC 96", "conditions": "37 °C", "MIC": "125 µg/mL"}
{"Molecule": "CN[C@H](CC(C)C)C(=O)N[C@H]1C(=O)N[C@@H](CC(N)=O)C(=O)N[C@H]2C(=O)N[C@H]3C(=O)N[C@H](C(=O)N[C@H](C(=O)O)c4cc(O)cc(O)c4-c4cc3ccc4O)[C@H](O)c3ccc(c(Cl)c3)Oc3cc2cc(c3O[C@@H]2O[C@H](CO)[C@@H](O)[C@H](O)[C@H]2O[C@H]2C[C@](C)(N)[C@H](O)[C@H](C)O2)Oc2ccc(cc2Cl)[C@H]1O", "test system": "MRSA USA300", "MIC": "0.5 to 1 µM"}
{"Molecule": "CC[C@H](C)[C@H](NC(=O)[C@H](CC(=O)O)NC(=O)[C@H](Cc1ccccc1)NC(=O)[C@H](CC(C)C)NC(=O)CN)C(=O)N[C@H](C(=O)N[C@@H](CCCCN)C(=O)N[C@@H](CCCCN)C(=O)N[C@H](C(=O)N[C@H](C(=O)NCC(=O)N[C@@H](C)C(=O)N[C@@H](CC(C)C)C(=O)N[C@@H](CCCCN)C(N)=O)C(C)C)C(C)C)C(C)C", "test system": "SH1000 GFP-expressing, nutrient broth", "conditions": "20 h, 37 °C", "MIC": "33 µM"}
{"Molecule": "plantazolicin", "test system": "NRS384 USA300 CA-MRSA", "conditions": "12 h, 37 °C", "MIC": "> 48 µM"}
{"Molecule": "NC(=O)c1cccc(O)c1O", "test system": "ATCC 29213", "conditions": "50 µg/mL", "MIC": "inactive"}
{"Molecule": "CC(C)C[C@H](NC(=O)[C@H](C)NC(=O)CNC(=O)[C@H](CC(C)C)NC(=O)[C@H](CC(C)C)NC(=O)[C@H](CCCCN)NC(=O)[C@H](CCCCN)NC(=O)[C@H](CC(C)C)NC(=O)[C@H](CC(C)C)NC(=O)[C@H](CCCCN)NC(=O)[C@H](CC(C)C)NC(=O)[C@H](CC(C)C)NC(=O)[C@@H](N)CCCCN)C(=O)NCC(N)=O", "test system": "ATCC 43300, CAMHB", "conditions": "18 h, 37 °C", "MIC": "3 µM"}
{"Molecule": "CC[C@H](C)[C@H](NC(=O)[C@H](CCCNC(=N)N)NC(=O)[C@@H]1CCCN1C(=O)[C@H](Cc1c[nH]cn1)NC(=O)[C@@H]1CCCN1C(=O)[C@@H]1CCCN1C(=O)[C@H](CCCNC(=N)N)NC(=O)[C@@H]1CCCN1C(=O)[C@H](CCC(N)=O)NC(=O)[C@@H]1CCCN1C(=O)[C@@H](NC(=O)[C@H](Cc1ccc(O)cc1)NC(=O)[C@@H](NC(=O)[C@@H]1CCCN1C(=O)[C@H](CCCNC(=N)N)NC(=O)[C@H](CC(N)=O)NC(=O)[C@H](CC(N)=O)NC(=O)CN)C(C)C)[C@@H](C)CC)C(=O)O", "test": "broth microdilution", "test system": "USA300 LAC", "conditions": "37 °C", "MIC": "> 100 µM"}
{"Molecule": "Cn1ccc(=O)nc1Sc1ccc([N+](=O)[O-])cc1[N+](=O)[O-]", "test": "microbial growth", "test system": "ATCC25923", "MIC": "64.5 µg/mL"}
{"Molecule": "CC(C)C[C@H](NC(=O)[C@H](C)NC(=O)[C@H](CCCCN)NC(=O)[C@H](C)NC(=O)[C@H](C)NC(=O)CNC(=O)[C@H](CCCCN)NC(=O)[C@H](CC(C)C)NC(=O)[C@H](CC(C)C)NC(=O)[C@H](CC(=O)O)NC(=O)[C@H](CCCCN)NC(=O)[C@H](Cc1ccccc1)NC(=O)CN)C(=O)N[C@H](C(=O)N[C@@H](CCCCN)C(=O)N[C@H](C(=O)N[C@H](C(=O)N[C@@H](CC(C)C)C(=O)N[C@@H](Cc1ccccc1)C(N)=O)C(C)C)[C@@H](C)O)C(C)C", "test": "broth microdilution", "test system": "USA300 LAC", "conditions": "37 °C", "MIC": "3.1 µM"}
{"Molecule": "CC[C@H](C)[C@H](NC(=O)[C@H](CCCNC(=N)N)NC(=O)[C@@H]1CCCN1C(=O)[C@@H]1CCCN1C(=O)[C@H](CC(C)C)NC(=O)[C@H](CCCNC(=N)N)NC(=O)[C@@H]1CCCN1C(=O)[C@@H]1CCCN1C(=O)[C@H](Cc1ccccc1)NC(=O)[C@H](Cc1ccccc1)NC(=O)[C@@H]1CCCN1C(=O)[C@@H]1CCCN1C(=O)[C@@H]1CCCN1C(=O)[C@H](CCCNC(=N)N)NC(=O)[C@@H]1CCCN1C(=O)[C@H](CCCNC(=N)N)NC(=O)[C@@H]1CCCN1C(=O)[C@H](CC(C)C)NC(=O)[C@H](Cc1ccc(O)cc1)NC(=O)[C@@H]1CCCN1C(=O)[C@@H]1CCCN1C(=O)[C@H](CCCNC(=N)N)NC(=O)[C@@H]1CCCN1C(=O)[C@H](CCCNC(=N)N)NC(=O)[C@H](CCCNC(=N)N)NC(=O)[C@@H](N)CCCNC(=N)N)C(=O)N1CCC[C@H]1C(=O)N1CCC[C@H]1C(=O)NCC(=O)N[C@@H](Cc1ccccc1)C(=O)N1CCC[C@H]1C(=O)N1CCC[C@H]1C(=O)N[C@@H](CCCNC(=N)N)C(=O)N[C@@H](Cc1ccccc1)C(=O)N1CCC[C@H]1C(=O)N1CCC[C@H]1C(=O)N[C@@H](CCCNC(=N)N)C(=O)N[C@@H](Cc1ccccc1)C(=O)N1CCC[C@H]1C(N)=O", "test": "broth microdilution", "test system": "media-adapted JE2", "conditions": "18 to 20 h", "MIC": "4 µg/mL"}
{"Molecule": "CC[C@H](C)[C@H](NC(=O)[C@H](Cc1c[nH]cn1)NC(=O)[C@H](Cc1c[nH]cn1)NC(=O)[C@H](Cc1ccccc1)NC(=O)[C@@H](N)Cc1ccccc1)C(=O)N[C@@H](Cc1ccccc1)C(=O)N[C@@H](CCCNC(=N)N)C(=O)NCC(=O)N[C@@H](C)C(=O)N[C@H](C(=O)N[C@@H](Cc1c[nH]cn1)C(=O)N[C@H](C(=O)NCC(=O)N[C@@H](CCCCN)C(=O)N[C@H](C(=O)N[C@H](C(=O)N[C@@H](Cc1c[nH]cn1)C(=O)N[C@@H](CCCNC(=N)N)C(=O)N[C@@H](CC(C)C)C(=O)N[C@H](C(=O)N[C@H](C(=O)NCC(N)=O)[C@@H](C)O)C(C)C)[C@@H](C)CC)[C@@H](C)O)C(C)C)C(C)C", "test": "broth microdilution", "test system": "MRSA clinical isolate, brain heart infusion", "conditions": "18 h, 37 °C", "MIC": "3.1 µg/mL"}
{"Molecule": "CC[C@H](C)[C@H](NC(=O)[C@H](CCCCN)NC(=O)[C@H](CCC(=O)O)NC(=O)[C@H](CCCCN)NC(=O)[C@H](CO)NC(=O)[C@H](CCCCN)NC(=O)[C@H](CCCNC(=N)N)NC(=O)[C@H](Cc1ccccc1)NC(=O)[C@H](Cc1ccccc1)NC(=O)[C@H](CC(=O)O)NC(=O)CNC(=O)[C@H](CC(C)C)NC(=O)[C@@H](N)CC(C)C)C(=O)NCC(=O)N[C@@H](CCCCN)C(=O)N[C@@H](CCC(=O)O)C(=O)N[C@@H](Cc1ccccc1)C(=O)N[C@@H](CCCCN)C(=O)N[C@@H](CCCNC(=N)N)C(=O)N[C@H](C(=O)N[C@H](C(=O)N[C@@H](CCC(N)=O)C(=O)N[C@@H](CCCNC(=N)N)C(=O)N[C@H](C(=O)N[C@@H](CCCCN)C(=O)N[C@@H](CC(=O)O)C(=O)N[C@@H](Cc1ccccc1)C(=O)N[C@@H](CC(C)C)C(=O)N[C@@H](CCCNC(=N)N)C(=O)N[C@@H](CC(N)=O)C(=O)N[C@@H](CC(C)C)C(=O)N[C@H](C(=O)N1CCC[C@H]1C(=O)N[C@@H](CCCNC(=N)N)C(=O)N[C@H](C(=O)N[C@@H](CCC(=O)O)C(=O)N[C@@H](CO)C(=O)O)[C@@H](C)O)C(C)C)[C@@H](C)CC)C(C)C)[C@@H](C)CC", "test system": "JE2 wild type", "conditions": "37 °C, 50% or 12.5% TSB", "MIC": "3.1 µM"}
